Experimental data of several laboratories.
Compare with care: the assays were run in different laboratories. ± marks the error that the study gave.
B1: NR3C1 98-525 (Homo sapiens, UniProt P04150); pyrene label; chain MGNDLGFPQQGQISLSSGETDLKLLEESIANLNRSTSVPENPKSSASTAVSAAPTEKEFPKTHSDVSSEQQHLKGQTGTNGGNVKLYTTDQSTFDILQDLEFSSGSPGKETNESPWRSDLLIDENCLLSPLAGEDDSFLLEGNSNEDCKPLILPDTKPKIKDNGDLVLSSPSNVTLPQVKTEKEDFIELCTPGVIKQEKLGTVYCQASFPGANIIGNKMSAISVHGVSTSGGQMYHYDMNTASLSQQQDQKPIFNVIPPIPVGSENWNRCQGSGDDNLTSLGTLNFPGRTVFSNGYSSPSMRPDVSSPPSSSSTATTGPPPKLCLVCSDEASGCHYGVLTCGSCKVFFKRAVEGQHNYLCAGRNDCIIDKIRRKNCPACRYRKCLQAGMNLEARKTKKKIKGIQQATTGVSQETSENPGNKTIVPATL
B2: PUX9 390-469 (Arabidopsis thaliana, UniProt Q4V3D3); chain AITLLVRMPDSSRHGRRFLKSDKLKYLFDFIDAAGLVKPGTYRVVRPYPRRAFSIQDGALTFEELSLTNKQEALFLELLV
B3: CFH domains 1108-1231 W1183R (Homo sapiens, UniProt P08603); sequence looked up; chain KCGPPPPIDNGDITSFPLSVYAPASSVEYQCQNLYQLEGNKRITCRNGQWSEPPKCLHPCVISREIMENYNIALRRTAKQKLYSRTGESVEFVCKRGYRLSSRSHTLRTTCWDGKLEYPTCAKR
B4: RSPO4/IgG1 Fc RSPO4 32-137 Q65R/N297Q; CPT2 conjugated via azide click; chain GGNCTGCIICSEENGCSTCQQRLFLFIRREGIRRYGKCLHDCPPGYFGIRGQEVNRCKKCGATCESCFSQDFCIRCKRQFYLYKGKCLPTCPPGTLAHQNTRECQGGGGGSGGGGSGGGGS
B5: JAZ10 (Arabidopsis thaliana, UniProt Q93ZM9); sequence looked up; chain MSKATIELDFLGLEKKQTNNAPKPKFQKFLDRRRSFRDIQGAISKIDPEIIKSLLASTGNNSDSSAKSRSVPSTPREDQPQIPISPVHASLARSSTELVSGTVPMTIFYNGSVSVFQVSRNKAGEIMKVANEAASKKDESSMETDLSVILPTTLRPKLFGQNLEGDLPIARRKSLQRFLEKRKERLVSTSPYYPTSA
Chain of UniProt P26039 (whole entry, looked up): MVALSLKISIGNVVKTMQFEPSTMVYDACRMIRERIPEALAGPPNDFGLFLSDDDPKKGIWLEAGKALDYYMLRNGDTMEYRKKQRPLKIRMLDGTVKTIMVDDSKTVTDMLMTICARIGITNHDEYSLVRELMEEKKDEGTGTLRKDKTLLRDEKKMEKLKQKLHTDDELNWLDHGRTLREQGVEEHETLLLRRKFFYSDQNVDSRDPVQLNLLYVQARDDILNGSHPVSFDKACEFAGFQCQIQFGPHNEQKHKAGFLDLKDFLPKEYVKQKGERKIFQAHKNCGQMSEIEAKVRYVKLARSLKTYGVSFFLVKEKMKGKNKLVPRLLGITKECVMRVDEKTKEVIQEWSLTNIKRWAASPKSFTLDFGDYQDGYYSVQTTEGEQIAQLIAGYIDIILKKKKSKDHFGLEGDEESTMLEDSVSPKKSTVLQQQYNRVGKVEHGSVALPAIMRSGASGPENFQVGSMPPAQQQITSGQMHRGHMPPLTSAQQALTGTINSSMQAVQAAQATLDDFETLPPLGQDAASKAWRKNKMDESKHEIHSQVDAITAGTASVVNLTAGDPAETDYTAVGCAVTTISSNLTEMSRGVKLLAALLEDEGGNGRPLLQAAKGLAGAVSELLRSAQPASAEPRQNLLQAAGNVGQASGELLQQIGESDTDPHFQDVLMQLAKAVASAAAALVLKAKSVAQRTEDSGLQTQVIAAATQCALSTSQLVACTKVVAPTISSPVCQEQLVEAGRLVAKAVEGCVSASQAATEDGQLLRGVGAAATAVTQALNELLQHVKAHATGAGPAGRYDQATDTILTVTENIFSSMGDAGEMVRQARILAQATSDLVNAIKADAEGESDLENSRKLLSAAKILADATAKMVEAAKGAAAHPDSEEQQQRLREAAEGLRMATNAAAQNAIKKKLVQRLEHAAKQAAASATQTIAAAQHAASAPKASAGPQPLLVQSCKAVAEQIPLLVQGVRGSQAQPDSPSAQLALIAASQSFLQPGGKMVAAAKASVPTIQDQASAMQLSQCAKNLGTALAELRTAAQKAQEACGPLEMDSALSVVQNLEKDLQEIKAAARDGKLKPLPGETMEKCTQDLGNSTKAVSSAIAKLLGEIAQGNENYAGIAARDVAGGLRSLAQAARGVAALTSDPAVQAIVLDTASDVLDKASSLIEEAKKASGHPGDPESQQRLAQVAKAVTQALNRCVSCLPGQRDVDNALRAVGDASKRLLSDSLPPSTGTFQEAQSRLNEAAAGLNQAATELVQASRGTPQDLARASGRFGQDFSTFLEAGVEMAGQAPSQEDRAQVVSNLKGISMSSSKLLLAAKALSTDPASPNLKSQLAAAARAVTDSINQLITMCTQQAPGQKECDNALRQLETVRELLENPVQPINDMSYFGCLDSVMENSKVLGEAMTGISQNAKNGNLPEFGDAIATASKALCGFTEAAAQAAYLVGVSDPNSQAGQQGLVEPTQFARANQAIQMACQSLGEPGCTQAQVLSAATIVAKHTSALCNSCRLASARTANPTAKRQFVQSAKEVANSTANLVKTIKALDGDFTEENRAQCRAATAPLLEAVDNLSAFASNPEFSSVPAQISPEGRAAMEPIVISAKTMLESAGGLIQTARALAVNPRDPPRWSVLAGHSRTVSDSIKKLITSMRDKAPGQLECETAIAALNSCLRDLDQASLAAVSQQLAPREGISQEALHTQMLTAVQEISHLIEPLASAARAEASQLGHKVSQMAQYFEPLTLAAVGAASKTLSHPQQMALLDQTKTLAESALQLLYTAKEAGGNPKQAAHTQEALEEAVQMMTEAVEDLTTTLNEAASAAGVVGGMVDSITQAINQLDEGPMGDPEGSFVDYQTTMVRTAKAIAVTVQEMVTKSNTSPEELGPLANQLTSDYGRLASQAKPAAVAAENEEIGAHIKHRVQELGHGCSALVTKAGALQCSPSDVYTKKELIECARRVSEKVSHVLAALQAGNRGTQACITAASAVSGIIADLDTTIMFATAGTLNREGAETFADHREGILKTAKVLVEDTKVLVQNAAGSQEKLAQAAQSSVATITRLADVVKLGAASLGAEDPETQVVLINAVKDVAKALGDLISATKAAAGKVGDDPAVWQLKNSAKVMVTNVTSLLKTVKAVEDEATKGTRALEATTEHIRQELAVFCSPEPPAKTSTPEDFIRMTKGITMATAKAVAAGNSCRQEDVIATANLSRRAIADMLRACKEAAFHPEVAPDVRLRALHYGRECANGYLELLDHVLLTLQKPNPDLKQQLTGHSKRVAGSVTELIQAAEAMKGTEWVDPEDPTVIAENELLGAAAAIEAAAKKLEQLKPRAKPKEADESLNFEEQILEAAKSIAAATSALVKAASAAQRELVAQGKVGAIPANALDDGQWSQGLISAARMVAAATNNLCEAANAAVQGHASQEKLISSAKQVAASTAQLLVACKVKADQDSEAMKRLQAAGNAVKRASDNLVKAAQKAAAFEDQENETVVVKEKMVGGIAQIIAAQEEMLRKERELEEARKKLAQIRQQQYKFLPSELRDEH
Chain of UniProt Q9FIP9 (whole entry, looked up): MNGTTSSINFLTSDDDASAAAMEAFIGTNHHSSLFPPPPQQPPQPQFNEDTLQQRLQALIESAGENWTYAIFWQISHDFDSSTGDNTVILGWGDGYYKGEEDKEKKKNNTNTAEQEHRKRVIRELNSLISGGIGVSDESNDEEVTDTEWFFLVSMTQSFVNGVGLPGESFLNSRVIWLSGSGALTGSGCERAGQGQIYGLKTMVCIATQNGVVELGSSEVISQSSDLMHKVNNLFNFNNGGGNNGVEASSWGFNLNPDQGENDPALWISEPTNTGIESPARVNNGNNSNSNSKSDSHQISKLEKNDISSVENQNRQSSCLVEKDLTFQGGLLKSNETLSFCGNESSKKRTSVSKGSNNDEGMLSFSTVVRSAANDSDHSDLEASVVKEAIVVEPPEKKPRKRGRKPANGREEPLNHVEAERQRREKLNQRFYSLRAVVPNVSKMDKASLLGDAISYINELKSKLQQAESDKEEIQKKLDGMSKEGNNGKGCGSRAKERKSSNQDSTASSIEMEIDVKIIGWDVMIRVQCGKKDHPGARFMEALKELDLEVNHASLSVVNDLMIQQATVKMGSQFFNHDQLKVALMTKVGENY
Chain of UniProt O94267 (whole entry, looked up): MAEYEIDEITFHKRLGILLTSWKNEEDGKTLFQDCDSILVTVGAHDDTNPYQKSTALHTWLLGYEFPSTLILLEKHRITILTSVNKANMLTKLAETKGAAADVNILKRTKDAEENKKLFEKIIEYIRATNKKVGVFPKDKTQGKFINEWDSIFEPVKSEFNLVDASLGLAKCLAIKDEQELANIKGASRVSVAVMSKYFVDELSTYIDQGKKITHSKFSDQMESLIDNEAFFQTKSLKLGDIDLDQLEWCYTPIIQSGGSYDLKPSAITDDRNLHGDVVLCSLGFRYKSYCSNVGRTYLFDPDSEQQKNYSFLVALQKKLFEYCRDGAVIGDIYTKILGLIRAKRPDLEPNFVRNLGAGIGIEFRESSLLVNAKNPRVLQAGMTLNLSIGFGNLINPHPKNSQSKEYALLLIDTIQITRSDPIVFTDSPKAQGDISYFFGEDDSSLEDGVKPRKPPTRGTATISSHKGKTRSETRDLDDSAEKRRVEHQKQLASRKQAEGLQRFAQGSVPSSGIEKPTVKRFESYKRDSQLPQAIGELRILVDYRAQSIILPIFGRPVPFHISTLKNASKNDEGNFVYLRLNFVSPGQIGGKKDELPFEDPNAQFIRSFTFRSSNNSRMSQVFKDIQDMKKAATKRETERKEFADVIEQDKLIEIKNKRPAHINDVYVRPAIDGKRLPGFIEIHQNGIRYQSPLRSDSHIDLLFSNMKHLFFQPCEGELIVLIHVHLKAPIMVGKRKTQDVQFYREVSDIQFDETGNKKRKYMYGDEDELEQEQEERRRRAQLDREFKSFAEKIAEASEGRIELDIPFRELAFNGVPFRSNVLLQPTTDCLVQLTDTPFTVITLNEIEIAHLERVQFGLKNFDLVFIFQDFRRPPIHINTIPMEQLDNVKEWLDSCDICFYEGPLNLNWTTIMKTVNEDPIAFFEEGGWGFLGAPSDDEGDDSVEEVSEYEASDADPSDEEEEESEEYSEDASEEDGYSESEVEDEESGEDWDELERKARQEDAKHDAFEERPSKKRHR
Chain of UniProt Q99816 (whole entry, looked up): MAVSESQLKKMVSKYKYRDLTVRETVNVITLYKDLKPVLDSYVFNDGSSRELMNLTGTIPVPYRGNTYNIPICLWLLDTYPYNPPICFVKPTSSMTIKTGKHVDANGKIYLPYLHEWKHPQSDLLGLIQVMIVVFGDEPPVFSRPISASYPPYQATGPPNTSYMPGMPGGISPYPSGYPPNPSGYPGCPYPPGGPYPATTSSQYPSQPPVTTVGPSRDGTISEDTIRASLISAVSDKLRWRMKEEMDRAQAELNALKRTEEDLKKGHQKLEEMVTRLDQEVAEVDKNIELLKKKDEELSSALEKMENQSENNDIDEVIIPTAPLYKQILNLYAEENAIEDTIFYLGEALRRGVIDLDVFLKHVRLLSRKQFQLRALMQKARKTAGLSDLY
Chain of UniProt P25963 (whole entry, looked up): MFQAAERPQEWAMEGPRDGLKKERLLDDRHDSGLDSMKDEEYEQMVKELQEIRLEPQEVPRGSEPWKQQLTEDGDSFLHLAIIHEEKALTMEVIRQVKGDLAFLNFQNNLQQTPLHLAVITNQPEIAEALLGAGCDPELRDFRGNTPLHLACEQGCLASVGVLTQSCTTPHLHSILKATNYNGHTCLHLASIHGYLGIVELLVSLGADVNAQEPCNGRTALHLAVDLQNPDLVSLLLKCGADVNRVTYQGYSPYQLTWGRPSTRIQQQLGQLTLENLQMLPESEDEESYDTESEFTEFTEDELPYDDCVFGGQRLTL

With `KLLMIIHDRREFAKFEKEKMNAKWDTQENPIYKSPVTTVVNPKYEGK (ITGB1 752-798 G778Q/A786P (Homo sapiens, UniProt P05556-1); sequence looked up)` the Kd was 135000 nM (Tln1 309-405 (Mus musculus, UniProt P26039); NMR titration).
The Kd of `LPDTDDRHRIEEKRKRTYETFKSIMKKSPFNGP (Rela 289-321 (Mus musculus, UniProt Q04207); sequence looked up)` is reported as 800 ± 64 nM (NFKBIA 67-206 (Homo sapiens, UniProt P25963); ITC; peptide).
`SDEMPNNAKRRRRSQSMIANKRIHQAFQEDEGDEDWEEEEHKPKAKRR (abo1 25-72 (Schizosaccharomyces pombe, UniProt O14114))` has a Kd of 3700 ± 370 nM (spt16 1-442 (Schizosaccharomyces pombe, UniProt O94267); BLI).
`B1 (NR3C1 98-525)` gave a Kd of 73000 nM (TSG101 229-304 coiled coil, pyrene label (Homo sapiens, UniProt Q99816); fluorescence anisotropy).
The reporter activation of `GLFQWIAQA` is reported as 0.00922% (Jurkat T cells expressing 1G4 TCR; NFAT-eGFP reporter, fluorescence microscopy; peptide; concentration not given, HLA-A*02:01 NY-ESO system).
For `GSGVTQTTKCCYSLEFHQ (designed peptide)`, the Kd was 120 ± 15 nM (ERBB2 23-652 (Homo sapiens, UniProt P04626); fluorescence titration; peptide; apparent).
`petF ferredoxin (Synechocystis sp. PCC 6803, UniProt P27320)` gave a Kd of 20700 ± 11300 nM (narB D163N (Synechococcus sp. PCC 7942); UV-visible difference titration).
`ESKDHQLLRYLLDKDEKDL (NCOA1 peptide; N-terminal 5-FAM)` has a Kd of 20600 nM (PPARG 202-477 (Homo sapiens, UniProt P37231-2); FP; peptide).
`B2 (PUX9 390-469)` gave a Kd of 6600 ± 600 nM (CDC48A 1-463 (Arabidopsis thaliana, UniProt P54609); ITC; 25 °C).
The binding intensity of `NPDALPETLV` is reported as -0.0567 (human MAGI1-2/6 PDZ construct (MBP fusion); automated holdup; peptide, crude extract; concentration not given, corrected by standard peak, unit not given; relative to: biotin control resin, higher = stronger binding).
`B3 (CFH domains 1108-1231 W1183R)` gave a Kd of 1900 ± 100 nM (C3 C3dg 955-1303 (Homo sapiens, UniProt P01024); SPR).
For `B4`, the Kd was 2 nM (LGR6 (Homo sapiens, UniProt Q9HBX8); whole-cell binding saturation; Fc fusion, HEK293T).
`Peginesatide` has an EC50 of 11.5 nM (UT7/EPO; phosphorylation, agonist, refers to: phospho-STAT3; 10 min).
For `human GAPDH`, the co-IP enrichment was 1270 (co-immunoprecipitation; human RBC membrane; DSSO crosslinker, unit not given, with: Band 3 peptide 1-56 bait; relative to: negative control).
For `GLLQWITQV`, the reporter activation was 25.5% (Jurkat T cells expressing 1G4 TCR; NFAT-eGFP reporter, fluorescence microscopy; peptide; concentration not given, HLA-A*02:01 NY-ESO system).
With `B5 (JAZ10)` the Kd was 430 ± 380 nM (MYC3 5-242, Alexa Fluor 488 label (Arabidopsis thaliana, UniProt Q9FIP9); MST; 200 nM, labelled protein).

For quick reference, copied from above:
With `KLLMIIHDRREFAKFEKEKMNAKWDTQENPIYKSPVTTVVNPKYEGK (ITGB1 752-798 G778Q/A786P (Homo sapiens, UniProt P05556-1); sequence looked up)` the Kd was 135000 nM (Tln1 309-405 (Mus musculus, UniProt P26039); NMR titration).
For `B4`, the Kd was 2 nM (LGR6 (Homo sapiens, UniProt Q9HBX8); whole-cell binding saturation; Fc fusion, HEK293T).
